Results gathered from unrelated publications.
Each numbered part is a random draw from the data of one study; scales do not carry over between parts. Substitutions count along the parent as printed.

Block 1 — method: RNA Bind-n-Seq; molecule type: RNA; sample: in vitro; concentration: 20 nM; notes: 6-mer, flanks averaged, single round; added: 150 mM KCl; reference: input library; direction: higher = stronger binding
Target: TAR DNA-binding protein 43, full length, His tag (TARDBP, Homo sapiens, UniProt Q13148, residues 1-414)
| Sequence | 6-mer enrichment (R) |
| --- | --- |
| CGCCCU | 0.64 |
| GAAUAU | 0.694 |
| AGAUCU | 0.575 |
| GAUUCG | 0.783 |
| GGACUU | 0.9 |
| UCUAUU | 0.573 |
| AGCGGU | 1.44 |
| GUAACU | 0.642 |

Block 2 — target: CCNA2, cyclin fold, Cln2 fusion (human); method: yeast growth competition, sequencing; sample: yeast; notes: strong parent motif; reference: not given; direction: higher = stronger binding
Starting sequence: viral docking peptide; KGVKRKLFAEDSS; partner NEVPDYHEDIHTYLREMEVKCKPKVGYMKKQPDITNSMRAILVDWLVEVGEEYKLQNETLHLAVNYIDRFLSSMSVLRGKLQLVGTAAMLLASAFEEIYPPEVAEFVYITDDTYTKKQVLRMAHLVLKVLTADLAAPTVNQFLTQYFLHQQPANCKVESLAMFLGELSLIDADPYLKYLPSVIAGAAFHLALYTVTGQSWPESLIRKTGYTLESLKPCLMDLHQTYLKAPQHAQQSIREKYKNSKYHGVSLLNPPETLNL
| Variant | normalised enrichment score |
| --- | --- |
| KGVKRKLFADDSS [E10D] | 6.73 |
| KGVKRKLKAEDSS [F8K] | 1.07 |
| KGVPRKLFAEDSS [K4P] | 4.3 |
| KGVKRKYFAEDSS [L7Y] | 0.622 |
| KGVMRKLFAEDSS [K4M] | 4.48 |
| KGVKRKLFAIDSS [E10I] | 5.79 |
| KGVKRKLFAEDYS [S12Y] | 5.84 |
| KGVKRKLFNEDSS [A9N] | 6.17 |
| KGVKRKRFAEDSS [L7R] | 0.446 |
| KGHKRKLFAEDSS [V3H] | 3.12 |
| KSVKRKLFAEDSS [G2S] | 6.53 |
| KGVYRKLFAEDSS [K4Y] | 5.34 |
| KGCKRKLFAEDSS [V3C] | 6.01 |
| KGVKRKLFAMDSS [E10M] | 5.66 |
| KGVKRKLFANDSS [E10N] | 6.15 |
| KGVKYKLFAEDSS [R5Y] | 0.415 |
| KGVKLKLFAEDSS [R5L] | 1.83 |
| KGFKRKLFAEDSS [V3F] | 5.97 |
| KGVKRKLFAADSS [E10A] | 6.12 |
| KGVKRKLFCEDSS [A9C] | 6.13 |
| KGVKRKLFAEDWS [S12W] | 6.26 |
| KGVKWKLFAEDSS [R5W] | 0.856 |
| KGVKRKMFAEDSS [L7M] | 1.09 |
| KGVFRKLFAEDSS [K4F] | 4.39 |
| KGYKRKLFAEDSS [V3Y] | 4.98 |

Block 3 — method: protein-binding microarray; molecule type: double-stranded DNA, one strand shown; sample: in vitro; concentration: 2200 nM top; notes: 60-bp whole probe; added: salmon DNA 0.4 mg/ml; reference: random background probes; direction: higher = stronger binding; shared flanks, not repeated: GCCTAGCAC … GTCTTGATTCGCTTGACGCTGCTG
Target: Interferon regulatory factor 7, full length, phosphomimetic (IRF7, Homo sapiens, UniProt Q92985, residues 1-503, S471D/S472D/S475D/S476D/S477D/S483D/S484D/S487D)
Chain of UniProt Q92985 (whole entry, unmodified, looked up): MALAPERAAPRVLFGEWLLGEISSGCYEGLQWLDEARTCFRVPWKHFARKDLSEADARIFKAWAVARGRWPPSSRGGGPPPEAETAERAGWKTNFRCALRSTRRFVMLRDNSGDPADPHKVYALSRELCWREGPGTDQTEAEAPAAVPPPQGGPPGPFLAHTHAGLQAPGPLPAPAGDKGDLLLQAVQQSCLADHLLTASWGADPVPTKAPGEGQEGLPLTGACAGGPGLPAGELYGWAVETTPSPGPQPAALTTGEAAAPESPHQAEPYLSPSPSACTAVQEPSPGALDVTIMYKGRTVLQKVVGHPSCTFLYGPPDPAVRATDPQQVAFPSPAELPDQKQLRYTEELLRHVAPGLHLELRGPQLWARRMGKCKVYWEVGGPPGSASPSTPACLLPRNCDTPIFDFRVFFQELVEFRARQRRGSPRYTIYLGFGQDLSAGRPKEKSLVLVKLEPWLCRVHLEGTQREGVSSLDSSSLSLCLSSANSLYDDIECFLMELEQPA
| Sequence | fitted relative affinity [z-score] |
| --- | --- |
| GACGATTCCGGGACTGGAGACGTGCTA | -0.142 |
| TTAGATCTCAGTCTCGGTTAGTGCTAG | 0.758 |
| GACAAACTGAGTCTCGAGACGTGCTAG | 0.00384 |
| GACGGTATCCTACTGCTCACGTGCTAG | 0.994 |
| GACGGACTGCTTATACTGACGTGCTAG | 0.24 |
| TTAGATATAAGACTGGATTAGTGCTAG | -0.746 |
| TTAGGTATCCTACTGCATTAGTGCTAG | 0.483 |
| ATAGGTATCGGGACTGGGTTAGTGCTA | -0.276 |

Block 4 — target: DBP, bZIP domain (human); method: DHFR protein complementation; sample: yeast; reference: wild-type JUN-FOS pair; direction: higher = stronger binding
Notes: single substitutions, most at no-binding floor
Starting sequence: JUN, bZIP domain (human); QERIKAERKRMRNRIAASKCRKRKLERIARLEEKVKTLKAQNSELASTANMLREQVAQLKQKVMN; partner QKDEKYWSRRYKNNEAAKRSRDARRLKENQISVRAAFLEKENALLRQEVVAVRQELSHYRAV
| Variant | binding fitness |
| --- | --- |
| T37R | -1.44 natural log |
| K34G | -1.39 natural log |
| E32N | -1.46 natural log |
| R53S | -1.42 natural log |
| A49F | -1.36 natural log |
| E32P | -1.5 natural log |
| E33N | -1.22 natural log |
| V56R | -1.48 natural log |

Other studies, line by line
OGT: UDP-N-acetylglucosamine--peptide N-acetylglucosaminyltransferase 110 kDa subunit (OGT, Homo sapiens, UniProt O15294)
Chain of UniProt O15294 (whole entry, looked up): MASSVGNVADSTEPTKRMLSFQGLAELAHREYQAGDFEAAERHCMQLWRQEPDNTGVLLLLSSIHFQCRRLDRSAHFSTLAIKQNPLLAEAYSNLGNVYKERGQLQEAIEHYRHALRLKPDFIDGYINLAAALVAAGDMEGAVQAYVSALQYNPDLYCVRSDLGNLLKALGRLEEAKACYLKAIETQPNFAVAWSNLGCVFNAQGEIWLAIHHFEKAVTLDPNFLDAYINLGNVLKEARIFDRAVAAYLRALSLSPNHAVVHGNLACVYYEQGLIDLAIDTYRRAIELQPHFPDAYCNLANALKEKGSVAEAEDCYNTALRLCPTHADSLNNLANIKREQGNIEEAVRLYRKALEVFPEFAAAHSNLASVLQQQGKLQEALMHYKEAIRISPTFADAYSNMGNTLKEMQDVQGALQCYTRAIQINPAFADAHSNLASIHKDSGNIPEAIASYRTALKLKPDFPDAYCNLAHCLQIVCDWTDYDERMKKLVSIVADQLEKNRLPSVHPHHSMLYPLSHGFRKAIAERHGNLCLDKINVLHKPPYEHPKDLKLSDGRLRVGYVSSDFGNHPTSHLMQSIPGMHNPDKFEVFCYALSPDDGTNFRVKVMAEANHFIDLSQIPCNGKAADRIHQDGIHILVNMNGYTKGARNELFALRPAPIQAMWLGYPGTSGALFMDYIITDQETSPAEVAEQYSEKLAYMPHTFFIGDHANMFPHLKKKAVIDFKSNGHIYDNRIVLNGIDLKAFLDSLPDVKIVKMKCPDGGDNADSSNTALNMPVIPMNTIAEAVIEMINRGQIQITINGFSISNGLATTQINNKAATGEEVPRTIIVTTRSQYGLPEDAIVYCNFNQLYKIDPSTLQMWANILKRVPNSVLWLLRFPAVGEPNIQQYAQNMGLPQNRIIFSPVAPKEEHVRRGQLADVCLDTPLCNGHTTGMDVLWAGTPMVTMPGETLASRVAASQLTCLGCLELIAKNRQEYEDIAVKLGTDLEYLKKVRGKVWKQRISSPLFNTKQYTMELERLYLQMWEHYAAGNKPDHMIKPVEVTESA
P1: PafA, mature enzyme, eGFP fusion (Elizabethkingia meningoseptica, UniProt Q9KJX5); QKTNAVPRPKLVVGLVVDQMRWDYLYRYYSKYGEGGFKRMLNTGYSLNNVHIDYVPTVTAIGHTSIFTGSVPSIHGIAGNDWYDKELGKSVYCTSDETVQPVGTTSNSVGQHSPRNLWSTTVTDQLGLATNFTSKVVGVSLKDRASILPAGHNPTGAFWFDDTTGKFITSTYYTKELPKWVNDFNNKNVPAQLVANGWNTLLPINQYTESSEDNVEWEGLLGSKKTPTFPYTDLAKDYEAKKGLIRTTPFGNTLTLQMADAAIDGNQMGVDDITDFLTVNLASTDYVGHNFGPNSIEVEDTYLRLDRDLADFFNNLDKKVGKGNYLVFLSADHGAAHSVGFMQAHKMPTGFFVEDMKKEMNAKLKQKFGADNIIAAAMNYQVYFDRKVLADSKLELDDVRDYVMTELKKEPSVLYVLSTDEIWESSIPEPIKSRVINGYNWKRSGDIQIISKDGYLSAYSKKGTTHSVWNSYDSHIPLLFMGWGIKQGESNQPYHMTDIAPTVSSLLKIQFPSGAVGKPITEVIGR
| Substance | target | assay | test system | conditions | how to read | endpoint | value |
| --- | --- | --- | --- | --- | --- | --- | --- |
| YEYYQVGVHHHPLHL | OGT | binding, phage display NGS | peptide | panning round 2 | reference: input library | minimum log2 enrichment ratio | 2.48 |
| P1 M404V | tungstate, free oxyanion | microfluidic competitive inhibition | in vitro, cell-free expressed | not given, derived from inhibition constants, unchanged parent 2230 nM | lower = stronger binding | oxyanion analog dissociation constant | 2.32 µM |
| IVGAIFPPKYLITYA | OGT | binding, phage display NGS | peptide | panning round 2 | reference: input library | minimum log2 enrichment ratio | 4.67 |

A few entries again (block 2):
| Variant | normalised enrichment score |
| --- | --- |
| KGVKRKLFAEDYS [S12Y] | 5.84 |
| KGVKRKLFNEDSS [A9N] | 6.17 |
| KGVKRKRFAEDSS [L7R] | 0.446 |
| KGHKRKLFAEDSS [V3H] | 3.12 |
